Experimental data gathered from unrelated publications.
A part holds a random share of what one study measured. Substitutions count along the parent as printed.

Block 1
Target: ABI1, truncated, D143A, DHFR fusion (Arabidopsis thaliana)
Method: DHFR PCA, deep sequencing
Medium: yeast
Notes: methotrexate growth selection, single substitutions
With: (+)-ABA 2500 µM
Relative to: wild-type fitted maximum
Reading: higher = stronger binding
Starting sequence: PYL1, truncated, DHFR fusion (Arabidopsis thaliana); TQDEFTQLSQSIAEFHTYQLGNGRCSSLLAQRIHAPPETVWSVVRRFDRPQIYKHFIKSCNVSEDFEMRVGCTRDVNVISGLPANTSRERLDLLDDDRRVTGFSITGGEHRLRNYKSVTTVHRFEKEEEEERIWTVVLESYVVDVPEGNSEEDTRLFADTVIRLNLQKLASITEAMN
Change | relative binding score
S9I | 94.8%
L169S | -5.86%
Q19H | 97.8%
L93Q | 102%
E151Q | 92.6%
L138G | 18.3%
V118W | 60%
E38P | 88.8%
Q51L | 84.7%
R98G | 96.2%
L82D | 0.609%
L138E | 35.5%
Q51K | 94.9%
I133W | 104%

Block 2
Target: RING finger protein unkempt homolog, zinc fingers 1-6, GST-SBP tag (UNK, Homo sapiens, UniProt Q9C0B0, residues 30-357)
UniProt Q9C0B0, sequence (30-357, looked up): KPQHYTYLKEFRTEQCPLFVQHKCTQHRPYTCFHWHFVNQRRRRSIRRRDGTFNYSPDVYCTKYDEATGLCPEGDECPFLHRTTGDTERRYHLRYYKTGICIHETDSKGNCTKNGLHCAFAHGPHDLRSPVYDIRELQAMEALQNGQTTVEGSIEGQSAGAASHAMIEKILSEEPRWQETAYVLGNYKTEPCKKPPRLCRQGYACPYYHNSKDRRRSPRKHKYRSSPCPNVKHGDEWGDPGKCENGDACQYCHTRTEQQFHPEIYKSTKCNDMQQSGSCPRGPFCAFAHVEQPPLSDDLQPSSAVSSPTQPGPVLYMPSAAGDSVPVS
Method: RNA Bind-n-Seq
Form: RNA
Medium: in vitro
Concentration: not given
Notes: RNA with constant flanks, human and mouse sites, ends assumed
Relative to: input RNA pool
Reading: higher = stronger binding
Strand | bound/input enrichment
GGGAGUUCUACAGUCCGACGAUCCUAUCAAAGGUUCCGGCUUGAAGGGAACUGUCACUACCCCCUCUAGGAAGUUAUUUUAUGUAGCAUGUUUGCAUAUACGCAUUGUGUGGCAUGUGCAUAGAGGCUUGUUUUACACCUAUCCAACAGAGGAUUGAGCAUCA | 0.762 ratio
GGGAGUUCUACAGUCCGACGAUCCUUAAUUAGAGGGCAAUAUAUGUUUCAUAAAGAAGAGUCUUUAUAAUUUUGUUUGUCAGAUAGUAUUUUGGAAUUUGUAUAAUAAGGAUGUUUAGAAGCCAUAUAAGUGGCUUUUUUUAACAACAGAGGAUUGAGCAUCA | 9.4 ratio
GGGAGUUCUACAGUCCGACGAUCAAUGCUAGUGUGAUAAUGCAAGUUCCGGAGAGGAUUGUUGUAGCAGGAAAUAAUGAAGAUGUUUCAUUUUCAAGACCAGCAGAUCUUGACCUUAUUCAGUCAACUCCCUUUAAACCCCUGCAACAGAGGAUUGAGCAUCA | 0.21 ratio
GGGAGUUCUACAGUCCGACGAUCGUCAGCAUUUUAUGUAUUCCAUUUGCAAAAAACAUUUAUGGACUCAUAGCUCCGAACUUUGGAGUUGGUUUUGCAAUUGGAAUGGUGGAUUCGUCAAUGAUGCCUAUCAUGGGCUACCUCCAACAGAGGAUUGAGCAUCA | 0.242 ratio
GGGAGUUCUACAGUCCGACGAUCACCGAACGAAGAAGGGACGAGCUCUCUGAAGAGAUCAACAACUUAAGAGAGAAGGUCAUGAAGCAGUCGGAGGAGAACAACAACCUGCAGAGCCAGGUGCAGAAGCUCACAGAGGAGAACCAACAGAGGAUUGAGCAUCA | 0.152 ratio
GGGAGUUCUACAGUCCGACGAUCACUCAGUACAUCAUGUGCUCCUAAGAAUGAUAACACAGAUUAUUAAUUAUACUAGUUUACUGACAAAGUCACAAAGACAAACAGUAAAAUACAGGCUACCUUUAACCCCAUGAUUGGUGACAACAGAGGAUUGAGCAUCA | 0.537 ratio
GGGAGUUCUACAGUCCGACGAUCAAAAGAAAAGCCUCUAAAUAGGGUUUCAUGUGGUGCAGGGUUAUAAACCUGCUUUAUCUUUUAGGAUUAUUCCUAAAUGCAUCUUCUUUAUAAACUUGACUUGCUAUAUCAGCAAGAUAACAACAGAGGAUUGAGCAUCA | 0.58 ratio
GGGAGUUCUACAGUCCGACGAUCUCUGUCAAGAUCAAGAAGAACAAGGAUAAUGUGAAGUUCAAGGUUCGCUGCAGCAGGUACCUUUACACCCUGGUUAUCACAGACAAGGAAAAGGCAGAGAAGCUGAAGCAGUCCCUACCCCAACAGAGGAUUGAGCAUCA | 0.102 ratio
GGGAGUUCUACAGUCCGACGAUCGAGGUAUUGGAAGCCUUGUAUGAUGGUAGCCUAGGAGACUGUAAAGAAGCUGCUGAAAUUUAUAGAGCAAAUUGUCAUAAGCUUUUCCCUUAUGCUUUGGCUUUCAUGCCUCCUGGAUAUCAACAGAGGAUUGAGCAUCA | 0.268 ratio
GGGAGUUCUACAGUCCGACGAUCUCCACCAAGAGCCUCUUCCUUGGCCAGAAGCUGAACCUUAUUCACAGUGAAAUCAGUAAUUUAGCCGGCUUUGAGGUGGAGGCCAUAAUCAAUCCUACCAAUGCUGACAUUGACCUUAAACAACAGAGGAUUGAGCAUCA | 0.128 ratio
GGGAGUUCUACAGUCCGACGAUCUCCAUGGAUUCUGAGGUCUUGGAGAUGUCACCUGAAAAGUCAGAUGGAAUAGUGGAGGGGAUAGAUGUAAAUGGACCAAAAGCACAGCUGAUGCUGCGGUACCCAGAUGGAAAAAGGGAACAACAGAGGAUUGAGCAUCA | 0.82 ratio

Block 3
Target: Phosphate system positive regulatory protein PHO4, full length, GST-tagged (PHO4, Saccharomyces cerevisiae, UniProt P07270, residues 1-312)
Method: competition protein-binding microarray
Form: double-stranded DNA, one strand shown
Medium: in vitro
Concentration: 2 µM
Notes: whole 60-bp probe, lowest competitor level
With: Cbf1 competitor, 0.05 µM
Reading: higher = stronger binding
Construct (chain): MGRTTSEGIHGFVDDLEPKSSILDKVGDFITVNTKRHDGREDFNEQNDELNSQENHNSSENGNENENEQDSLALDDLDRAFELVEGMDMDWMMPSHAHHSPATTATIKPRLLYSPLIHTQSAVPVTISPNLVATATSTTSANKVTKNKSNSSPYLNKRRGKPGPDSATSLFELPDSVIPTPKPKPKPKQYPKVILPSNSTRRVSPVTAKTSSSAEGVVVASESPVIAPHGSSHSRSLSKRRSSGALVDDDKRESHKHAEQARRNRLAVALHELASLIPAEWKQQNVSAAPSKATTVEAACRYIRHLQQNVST
Strand | fluorescence intensity
AAATTACTAAGTTGATATGTGGGTGACGCCGTATGAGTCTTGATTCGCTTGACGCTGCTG | 4010 a.u.
AAGGCAACAAGCCGACACGTGGAGGAAAGCCAGGAGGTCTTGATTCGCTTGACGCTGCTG | 16000 a.u.
TGCCTTTCTGAAACGAATGTGACGGATACAGATACCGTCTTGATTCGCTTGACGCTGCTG | 5060 a.u.
ATGAAGATTCTTGTTCATGTGATACAGCTTTTCTAGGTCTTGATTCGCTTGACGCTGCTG | 5820 a.u.
CTTTCCCGATCTTTTCACGTGTTTTTAGCACATTTGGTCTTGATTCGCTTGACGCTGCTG | 14100 a.u.
CTTTCCCGATCTTTTCACGTGGTCTTAGCACATTTGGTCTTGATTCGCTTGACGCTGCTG | 15400 a.u.
CGGGGTTAAGTTTTTCACGTGTGGTGCTTGCAGCAGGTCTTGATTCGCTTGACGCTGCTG | 12000 a.u.
GATCGGCTACGCAACTACGTGCATCGCTCCGTTGGAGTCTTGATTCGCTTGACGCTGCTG | 6900 a.u.
AGTCTTGATTTCTTGCGCATGACGGATTAAATTCTTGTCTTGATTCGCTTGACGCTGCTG | 5360 a.u.
TTTCGAACGGAGCCGTGCGTGCTTTGAGTTTTTTGAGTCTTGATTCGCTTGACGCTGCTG | 9200 a.u.
TCGCAATATGAATATCACAGAAAAATTAGAGCAACAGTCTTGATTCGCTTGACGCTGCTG | 2690 a.u.
CGGGGTTAAGTTTGACGCGTGGGTGGCTTGCAGCAGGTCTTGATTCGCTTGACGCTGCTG | 11600 a.u.
GAGATCCAGATGTCGCACGTGACCTAAGTGAGACTGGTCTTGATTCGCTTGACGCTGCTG | 15200 a.u.
AAATTACTAAGTTTTCACGTGGTGTACCCCGTATGAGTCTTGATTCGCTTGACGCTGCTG | 15900 a.u.
CTGCCAGTAAAGCAGAATGTGCGGGTCTTGTATCCAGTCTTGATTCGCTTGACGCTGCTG | 5790 a.u.
AAAATGCCAAAGTTCCACGTGCATCCAAACCAGTAGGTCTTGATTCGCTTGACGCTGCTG | 16800 a.u.
CTTCTGTAAATTTTTCACGTGCAGTGAAGCGCCCCGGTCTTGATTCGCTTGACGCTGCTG | 13800 a.u.
GTAATAGGAATAGACCGTGTGATGGTTGCCGTCAGCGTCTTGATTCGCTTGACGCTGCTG | 6200 a.u.
CTTCTGTAAATTTGAATTGTGGGTGGACGCGCCCCGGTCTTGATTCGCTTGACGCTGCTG | 4220 a.u.
CCGATATGCAGACATCATGTTCCTGTATTTTTTGACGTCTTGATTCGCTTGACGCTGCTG | 7030 a.u.
CTTTCCCGATCTTGGGATGTGGGTGTAGCACATTTGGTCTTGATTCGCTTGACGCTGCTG | 5330 a.u.
TCGGTGGGTAAGCGTCACAATTTCGTCCACCAGTACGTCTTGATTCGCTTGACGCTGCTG | 4420 a.u.
CCAGCAGAAACGCTACACGTGATGGTAATGGAACTAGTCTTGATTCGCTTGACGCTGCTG | 14600 a.u.
GACTTGGCCTAGTTCCACATGTTTTTCATCATCCAGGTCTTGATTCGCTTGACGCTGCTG | 7610 a.u.
GTCTTGAAGTTGGCGCACATGGAAATCAAATGACCAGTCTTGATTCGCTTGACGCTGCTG | 9750 a.u.

Block 4
Target: RNA binding protein fox-1 homolog 2, RRM domain, GST-SBP tag (RBFOX2, Homo sapiens, UniProt O43251-10, residues 100-194)
Method: RNA Bind-n-Seq
Form: RNA
Medium: in vitro
Concentration: 365 nM
Notes: natural RNA segment, single round, ends assumed
Relative to: no-protein control
Reading: higher = stronger binding
Residues (chain): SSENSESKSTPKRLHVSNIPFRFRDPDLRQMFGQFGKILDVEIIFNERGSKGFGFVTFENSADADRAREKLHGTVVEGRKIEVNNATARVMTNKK
Strand | RBNS enrichment (R)
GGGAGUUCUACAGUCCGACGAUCGCCCUGCCGCCCCAGCCUGGACGCUCUGCGUGGAAGUGCGUGUUUGUAGCAGCUCGGGCCUCAUCUCAGCGCUCGGAUCCCUCCUGCUGCCAGAAUCCACUGGCCUCUGUUGGAAUUCUCGGGUGCCAA | 0.273
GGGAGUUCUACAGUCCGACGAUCAAAAUAACAGUUUCAUUGAGAUCAGUAGUAAAUUUUACUAUGUUUUUUUUAAAGCUUACGUACUUGAAUUUUAUAUCAGGAAGAUGGUUUUUGAGCCUGUUCCUUACCCUUGGAAUUCUCGGGUGCCAA | 0.415
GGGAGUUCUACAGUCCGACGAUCCCAGCAAAGGAAUCUAGGAAUGACAACUGCAGUGUCCACUCCUAAACACCUCCUUCUCUUACACCCUUCGAAAUGGGUACAAACUUAAUUCUUCUCAGAAACUGGAAGACUGGAAUUCUCGGGUGCCAA | 0.543
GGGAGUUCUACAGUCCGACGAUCAAGGAGGACCAGUCUGAAGAUAAGAAAAGACCCAGCCUGCCUUCCAGCCCGUCUCCUGGCCUCCCAAAGGCUUCUGCCACCUCAGCCACUCUGGAGCUGGAUAGACUGAUUGGAAUUCUCGGGUGCCAA | 0.288
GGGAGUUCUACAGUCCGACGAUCUGAGAAUGGAGAGCCCGAGAAGUGAAUCUUCCUUGUCCUGUAUAAUAAAUUAUUAAGUUGUGUUGGUCCGGGCUUCGAAUGGCCUCUUUUUCCUAGUGUAAUUCUGUGUGUGGAAUUCUCGGGUGCCAA | 0.641
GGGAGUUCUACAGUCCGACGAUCUCCAAAAGAGUUUGAUUCUGGCACAUUCUUGCCGCUGCCCCCAAGUUAACAACAGUAGGUAAUUUGCACACCUCUGGCUCUGUGCCUUUCUAUUAGGACUUUUUGGCAGAUGGAAUUCUCGGGUGCCAA | 0.53
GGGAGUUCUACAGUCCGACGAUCGCCUUUCCAGGUUUCCUUUAGCUUCCCUGCUUCCUGGGAAUCAGGAGCCUGGACACUGCCAUCUCUAGAGCAGAGUGGAGGCCUGGACUCCCUUUGCUCACUCCAUUCGGUGGAAUUCUCGGGUGCCAA | 0.294
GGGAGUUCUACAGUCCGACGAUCCCAUUUGUAUACAUUUGCCCAAACAUAGCAACUAUUGUACAGUUUUUCAUUGUAUCAAAUACUUUUUUAAAGACUACAAAUAAAGUCUAUUAGGACUGUGACCCAAUAGAUGGAAUUCUCGGGUGCCAA | 0.44
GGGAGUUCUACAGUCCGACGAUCUUUGCGGGGGGGCCCUACUGUACUGAGGGGAAACCCACAAGUGAGCAUGGGGGAAUGCCCAUCCUGGAGAAGAAUUCUUGCCCUCCCCUCUCUUCUCCUCCCAACCAAAAUGGAAUUCUCGGGUGCCAA | 1.18

Repeated from above (block 4):
Strand | RBNS enrichment (R)
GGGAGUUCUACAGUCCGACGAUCAAGGAGGACCAGUCUGAAGAUAAGAAAAGACCCAGCCUGCCUUCCAGCCCGUCUCCUGGCCUCCCAAAGGCUUCUGCCACCUCAGCCACUCUGGAGCUGGAUAGACUGAUUGGAAUUCUCGGGUGCCAA | 0.288
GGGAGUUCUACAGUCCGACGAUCUGAGAAUGGAGAGCCCGAGAAGUGAAUCUUCCUUGUCCUGUAUAAUAAAUUAUUAAGUUGUGUUGGUCCGGGCUUCGAAUGGCCUCUUUUUCCUAGUGUAAUUCUGUGUGUGGAAUUCUCGGGUGCCAA | 0.641
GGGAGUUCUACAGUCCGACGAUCUCCAAAAGAGUUUGAUUCUGGCACAUUCUUGCCGCUGCCCCCAAGUUAACAACAGUAGGUAAUUUGCACACCUCUGGCUCUGUGCCUUUCUAUUAGGACUUUUUGGCAGAUGGAAUUCUCGGGUGCCAA | 0.53
